Published values of several laboratories.
A part holds a random share of what one study measured.

Series 1
Target: Histone acetyltransferase KAT6A, winged helix 2, GST fusion (KAT6A, Homo sapiens, UniProt Q92794, residues 85-181)
Method: protein binding microarray
Form: double-stranded DNA, one strand shown
Medium: in vitro
Concentration: not given
Notes: 8-mer, flanks averaged, mean of 2 arrays, mostly near background
Relative to: not given
Reading: higher = stronger binding
Construct (chain): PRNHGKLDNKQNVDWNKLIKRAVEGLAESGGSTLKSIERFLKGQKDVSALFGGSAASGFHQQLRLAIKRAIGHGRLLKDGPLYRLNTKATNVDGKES
The E-score of `CGCAGGAA` is reported as 0.0352.
`ACGACATC` has an E-score of 0.0533.
The E-score of `CAGCACCC` is reported as -0.131.
For `AATGTCAT`, the E-score was -0.0901.
The E-score of `CAATATCG` is reported as -0.0653.
`AAGCGAGT` gave an E-score of 0.149.
With `AATTGAGG` the E-score was -0.00877.
`GGGTCGTA` has an E-score of 0.0021.
With `ATGGTGTA` the E-score was -0.144.
`AGTACGGA` gave an E-score of -0.0706.
`GAGTGTAA` has an E-score of -0.00194.

Series 2
Target: Fragile X messenger ribonucleoprotein 1, C-terminal low-complexity region (Fmr1, Mus musculus, UniProt P35922)
Method: RNA Bind-n-Seq
Form: RNA
Medium: in vitro
Concentration: 200 nM
Notes: whole 134-nt RNA, ends assumed
Together with: 150 mM LiCl
Relative to: input library
Reading: higher = stronger binding
Library: 7-deaza-guanosine replaces G
With `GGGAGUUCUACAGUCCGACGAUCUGGGAGGUGGAUUUUGUUUAUUUUUUUAGCUCAUUUCGAGGGGUGGGAAUUUUUUUUUAAUAUGUGUCAUGAAUAAAGUUGUUUUUGAAAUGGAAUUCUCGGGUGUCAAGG` the log2 enrichment was 0.852.
The log2 enrichment of `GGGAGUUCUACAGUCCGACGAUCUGGGAGGUGGAUUUUGUUUAUUUUUUUAGCUCAUUUCCAGGUGUGGGAAUUUUUUUUUAAUAUGUGUCAUGAAUAAAGUUGUUUUUGAAAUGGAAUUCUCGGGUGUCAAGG` is reported as -0.432.
With `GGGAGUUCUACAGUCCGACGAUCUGGCCCUGGUGGCCUGCGGGGAGGAAGAGGUGGCCUCAUGGAUCGUGGUGGUCCCGGUGGAAUGUUCAGAGGUGGCCGUGGUGGAGACAGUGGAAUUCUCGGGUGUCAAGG` the log2 enrichment was 0.268.
With `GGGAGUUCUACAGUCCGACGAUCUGUGUGUUAUAUAUUUAUUUUUAAUUGCAGAUGACAGGAUUGGACAUUGAGAAGGACCAGAUUAUUGAGAUGGCCUGUCUGAUAACUGACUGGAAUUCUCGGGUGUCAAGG` the log2 enrichment was -3.44.
The log2 enrichment of `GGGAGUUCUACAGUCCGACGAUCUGGGAGGUGGAUUUUGUUUAUUUUUUUAGCUCAUUUCCAGGGGUGGGAAUUUUUUUGUAAUAUGUGUCAUGAAUAAAGUUGUUUUUGAAAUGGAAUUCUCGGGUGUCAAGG` is reported as 0.0884.

Series 3
Target: Interferon regulatory factor 7, full length, phosphomimetic (IRF7, Homo sapiens, UniProt Q92985, residues 1-503, S471D/S472D/S475D/S476D/S477D/S483D/S484D/S487D)
Method: protein-binding microarray
Form: double-stranded DNA, one strand shown
Medium: in vitro
Concentration: 2200 nM top
Notes: 60-bp whole probe
Together with: salmon DNA 0.4 mg/ml
Relative to: random background probes
Reading: higher = stronger binding
Shared flanks, not repeated: GCCTAGCAC … GTCTTGATTCGCTTGACGCTGCTG
Target sequence (chain): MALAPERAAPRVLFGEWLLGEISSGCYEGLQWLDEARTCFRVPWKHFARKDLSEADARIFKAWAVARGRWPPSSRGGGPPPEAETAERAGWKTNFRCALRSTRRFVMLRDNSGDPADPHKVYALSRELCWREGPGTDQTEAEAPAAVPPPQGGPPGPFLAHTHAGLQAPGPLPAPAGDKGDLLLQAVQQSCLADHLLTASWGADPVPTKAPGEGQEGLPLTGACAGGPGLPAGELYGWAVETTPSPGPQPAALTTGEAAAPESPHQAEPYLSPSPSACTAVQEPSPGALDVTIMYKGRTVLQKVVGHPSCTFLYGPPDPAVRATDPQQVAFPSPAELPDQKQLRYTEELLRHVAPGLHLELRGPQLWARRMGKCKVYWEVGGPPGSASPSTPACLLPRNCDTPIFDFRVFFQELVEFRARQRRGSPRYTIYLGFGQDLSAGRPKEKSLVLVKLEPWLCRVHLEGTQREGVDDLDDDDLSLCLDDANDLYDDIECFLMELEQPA
`CAGCCTCTGAGCAGCTCGGCGTGCTAG` — result for “fitted relative affinity”: -0.367 z-score.
Under “fitted relative affinity”, `TTAGGTTTCCTTATCCTTTTGTGCTAG` is recorded as 2.23 z-score.
`TTAGGTTTCGACACTGGGTTGGTGCTA` — result for “fitted relative affinity”: 2.28 z-score.
`TTACGTTTCGGGACTGGGTTAGTGCTA`: “fitted relative affinity” 4.71 z-score.
`TATCTTATGATATATATAATAGTGCTA` — result for “fitted relative affinity”: 0.0395 z-score.
Under “fitted relative affinity”, `TTAGGATTCCTTTTCCTTTAGTGCTAG` is recorded as 2.25 z-score.
`GACGGTATCGGACGGGGGACGTGCTAG`: “fitted relative affinity” 0.308 z-score.
Under “fitted relative affinity”, `TTAGGTATCCTACTGCGTTAGTGCTAG` is recorded as 0.464 z-score.

Single results of other studies
`PhoQ, residues 284 288 289 292 302 303 AAQSYM` gave a fold induction of 3.64 (PhoP, residues 12 14 15 18 19 NQGLL (Escherichia coli, UniProt P23836); Sort-seq, item: YFP reporter; E. coli; PhoQ-PhoP variant library, together with: 10 µM Mg2+; relative to: high Mg2+ state, higher = stronger signaling).

For quick reference, copied from above (series 1):
`ACGACATC` has an E-score of 0.0533.
